Assay results collected from several papers.
Parts stem from different laboratories: compare values within a part only.

Block 1
Target: Sal-like protein 4, full length isoform B (SALL4, Homo sapiens, UniProt Q9UJQ4-2, residues 1-616)
Method: universal PBM
Molecule type: double-stranded DNA, one strand shown
Medium: in vitro
Tested at: not given
Setting: 8-mer, flanks averaged, mean of replicates
Direction: higher = stronger binding
Oligonucleotide	E-score
AACGCATG	0.0434
GCCTACTA	-0.0542
CAAGCAAA	0.149
GGTTGGTA	-0.00019
GAGGTCAC	-0.169
AACATCGC	-0.222
ACAACGAC	0.0402
ACGCACTG	-0.183

Block 2
Cell line: HEK-293T
Read-out: pseudovirus infection
Method: FDA-approved drug library screen
Organism: VSV pseudotyped with SARS-CoV-2 spike
Tested at: 10 µM
Time: 16 h
Reference: vehicle-treated
Structure (SMILES)	GFP-positive cells [%]
Nc1[nH]c(=O)ncc1F	92.5
COC(=O)C1=C(C)NC(C)=C(C(=O)OCCN(C)Cc2ccccc2)C1c1cccc([N+](=O)[O-])c1 (centres unmarked)	40.6
CN1CCC(=C2c3ccccc3CC(=O)c3sccc32)CC1	72.7
CO[C@H]1O[C@@H]2O[C@@]3(C)CC[C@H]4[C@H](C)CC[C@@H]([C@H]1C)[C@@]24OO3	55.6
C[C@H](CCC(=O)O)[C@H]1CC[C@H]2[C@@H]3[C@@H](O)C[C@@H]4C[C@H](O)CC[C@]4(C)[C@H]3CC[C@]12C	93
CCCCCCCCCCCCCCCCOP(=O)([O-])OCC[N+](C)(C)C	93.2

Block 3
Target: Replicase polyprotein 1ab, polymerase (rep, Severe acute respiratory syndrome coronavirus 2, UniProt P0DTD1)
Read-out: enzyme activity
Mode: inhibitor
Tested at: 20 µM
Compound	inhibition
Cc1cc2c(N3CCCC3)nc(N3CCCC3)nc2n1C	2.13%
CC1(C)CCC(C)(C)c2cc(NC(=O)c3ccc(C(=O)O)cc3)ccc21	-4.97%
Nc1nc(Cl)nc2c1ncn2[C@@H]1O[C@H](CO)[C@@H](O)[C@@H]1F	25%
O=C1NC(=O)/C(=C/c2ccc3nccc(-c4ccncc4)c3c2)S1	4.94%
COc1cc(/C=C/C(=O)N2CCN(CC(=O)N3CCCC3)CC2)cc(OC)c1OC	-3.22%
O=C1/C(=C/c2ccccc2)C(NC2CCCCC2)c2ccccc21 (centres unmarked)	-1.99%
O=C1N=C2SCCN2C(=O)C1Cc1ccc(Cl)cc1 (centres unmarked)	1.16%
Nc1ccc(-c2nc3ccc(-c4nc5ccc(N)cc5[nH]4)cc3[nH]2)cc1	69.1%
C=CCN1C[C@H](C)N([C@H](c2ccc(C(=O)N(CC)CC)cc2)c2cccc(O)c2)C[C@H]1C	-1.62%
CCOC(=O)[C@]12CC1/C(=N\O)c1ccccc1O2 (mixture of isomers)	3.25%
CCC[C@H](Nc1nc(-c2ccc(NC(=O)NCC)c(OC)c2)ncc1C)c1cccnc1	1.46%
CCC(=O)OCC(=O)[C@@]1(OC(=O)CC)[C@@H](C)C[C@H]2[C@@H]3CCC4=CC(=O)C=C[C@]4(C)[C@@]3(Cl)[C@@H](O)C[C@@]21C	5.02%
CC(C)(C#N)c1cc(Cn2cncn2)cc(C(C)(C)C#N)c1	-7.65%
COc1ccc(/C=C/C(=O)O)cc1	-1.52%
Oc1c(I)cc(I)c2cccnc12	23.7%
Oc1nc(-c2ccc(C(F)(F)F)cc2)nc2c1CSCC2	-0.63%
CO[C@H]1/C=C\C=C(/C)C(=O)NC2=CC(=O)C(NCCN(C)C)=C(C[C@@H](C)C[C@H](OC)[C@H](O)[C@@H](C)/C=C(\C)[C@@H]1OC(N)=O)C2=O	5.34%
COc1cc(NC(=O)c2ccc(-c3ccc(Cl)cc3)o2)cc(OC)c1	2.86%
CCOC(=O)[C@@]1(CCCCCCOc2ccc(Cl)cc2)CO1	-2.85%
O=C(O)CCc1c(C(=O)O)[nH]c2cc(Cl)cc(Cl)c12	3.67%
CCOC(=O)Nc1ccc2c(c1)N(C(=O)CN(C)C)c1ccccc1CC2	-3.4%
CCOc1cc(OCC)c(C(=O)CCC(=O)O)cc1OCC	-1.89%
CN(C)Cc1ccc(-c2nc3cccc4c3n2CCNC4=O)cc1	-1.96%
CC[C@H](C)[C@H](N)C1=N[C@H](C(=O)N[C@@H](CC(C)C)C(=O)N[C@H](CCC(=O)O)C(=O)N[C@H](C(=O)N[C@H]2CCCCNC(=O)[C@H](CC(N)=O)NC(=O)[C@@H](CC(=O)O)NC(=O)[C@H](Cc3cnc[nH]3)NC(=O)[C@@H](Cc3ccccc3)NC(=O)[C@H]([C@@H](C)CC)NC(=O)[C@@H](CCCN)NC2=O)[C@@H](C)CC)CS1	5.04%
CCc1nc2ccc(Cl)cn2c1C(=O)NCc1ccc(N2CCC(c3ccc(OC(F)(F)F)cc3)CC2)cc1	-2.5%

Block 4
Target: Replicase polyprotein 1ab, main protease (rep, Severe acute respiratory syndrome coronavirus 2, UniProt P0DTD1)
Read-out: enzyme activity
Mode: inhibitor
Tested at: 20 µM
Setting: hit confirmation
Structure (SMILES)	inhibition
Clc1ccc(C(OCCN2CCCCC2)c2ccccc2)cc1 (centres unmarked)	-19.5%
COc1cc(C(=S)N2CCOCC2)cc(OC)c1OC	18.2%
CCC(C)SSc1ncc[nH]1 (centres unmarked)	99.8%
N=C(N)c1cc2ccc(OC(=O)c3cccs3)cc2s1	23.2%
O=C(O)C(=O)CBr	74%
COc1ccc2[nH]c([S@@+]([O-])Cc3ncc(C)c(OC)c3C)nc2c1	99.1%

Block 5
Target: Phosphate system positive regulatory protein PHO4, full length, GST-tagged (PHO4, Saccharomyces cerevisiae, UniProt P07270, residues 1-312)
Method: competition protein-binding microarray
Molecule type: double-stranded DNA, one strand shown
Medium: in vitro
Tested at: 2 µM
Setting: whole 60-bp probe, lowest competitor level
With: Cbf1 competitor, 0.05 µM
Direction: higher = stronger binding
Construct (chain): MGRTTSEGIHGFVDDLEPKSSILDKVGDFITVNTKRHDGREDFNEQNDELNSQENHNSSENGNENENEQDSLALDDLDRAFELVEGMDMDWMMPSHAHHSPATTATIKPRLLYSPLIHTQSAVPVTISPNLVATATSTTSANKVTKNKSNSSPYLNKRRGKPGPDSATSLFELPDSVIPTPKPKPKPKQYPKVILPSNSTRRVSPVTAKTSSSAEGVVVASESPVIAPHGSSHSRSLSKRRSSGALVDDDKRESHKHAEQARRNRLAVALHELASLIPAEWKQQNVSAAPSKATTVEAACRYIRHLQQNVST
Oligonucleotide	fluorescence intensity
AGTAATAGATCTCGGCACGTGGCCGCATTGACTCCGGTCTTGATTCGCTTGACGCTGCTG	18300 a.u.
CATGGAAAAGCAAGTGCCGTGCCAGTTCCAACTAAGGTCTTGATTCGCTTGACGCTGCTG	6240 a.u.
TTATCACCGTAATGGCCCAGATTAATGGCGATCCTTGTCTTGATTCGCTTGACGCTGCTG	2730 a.u.
TGCGCAACAACTTGTTAGGTGGGTGTATGTCTAGAAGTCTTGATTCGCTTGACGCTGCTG	4400 a.u.
CGGGGTTAAGTTTTTCACGTGTGATGCTTGCAGCAGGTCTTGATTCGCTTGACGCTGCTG	12400 a.u.
GCCCCAAAATACTGTCACAGTAAAGACCATGCTTGTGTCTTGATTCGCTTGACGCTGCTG	4430 a.u.
CTTTTCTGCTACGGCCACGTGGCCGCAGCCCGATTTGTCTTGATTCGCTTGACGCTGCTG	17300 a.u.
TATAGTCAGCCTCAACATGTGGCTATGATGACCAGCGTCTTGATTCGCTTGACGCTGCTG	8920 a.u.
